Measured values gathered from unrelated publications.
Numbered parts are unrelated; each lists some results of a single study.

Sample 1
Target: Phosphate system positive regulatory protein PHO4, full length, GST-tagged (PHO4, Saccharomyces cerevisiae, UniProt P07270, residues 1-312)
Technique: competition protein-binding microarray
Molecule type: double-stranded DNA, one strand shown
Medium: in vitro
Tested at: 2 µM
Notes: whole 60-bp probe, lowest competitor level
Added: Cbf1 competitor, 0.05 µM
Reading: higher = stronger binding
Measurement: fluorescence intensity
All sequences stand within: … GTCTTGATTCGCTTGACGCTGCTG
Construct (chain): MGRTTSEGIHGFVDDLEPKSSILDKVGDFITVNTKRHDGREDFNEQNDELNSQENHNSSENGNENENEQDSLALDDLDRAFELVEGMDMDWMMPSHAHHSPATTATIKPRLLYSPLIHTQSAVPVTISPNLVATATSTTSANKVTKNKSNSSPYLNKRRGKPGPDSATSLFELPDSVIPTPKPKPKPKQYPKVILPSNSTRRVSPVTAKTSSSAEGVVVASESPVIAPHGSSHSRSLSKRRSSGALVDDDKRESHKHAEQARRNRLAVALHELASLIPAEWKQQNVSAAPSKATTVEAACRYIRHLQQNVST
Oligonucleotide = CTTTCCCGATCTTGCTTTGTGGGTGTAGCACATTTG; result = 4580 a.u.
Oligonucleotide = CATCGGCTCAACTTGATCATGCAATTAGCAAGCAAC; result = 4040 a.u.
Oligonucleotide = CTTCTGTAAATTTGAATCGTGGGTGGACGCGCCCCG; result = 8190 a.u.
Oligonucleotide = CAGAGCTGAGCAGGGCACGTGGGTGCCCTCCAGGCT; result = 19200 a.u.
Oligonucleotide = CTTTCCCGATCTTGCGGGGTGGGTGTAGCACATTTG; result = 5170 a.u.
Oligonucleotide = TGGCGTACGACGACTCATGTGTGTTAGATTGGGACA; result = 5370 a.u.
Oligonucleotide = AGCAGATGGTAATCGCACGTTGAAAATGCTGAATAT; result = 9790 a.u.
Oligonucleotide = CACCTCTCGACCCGTCACGTCAAGGTTTGCTGCCTC; result = 4570 a.u.
Oligonucleotide = GACACCACTGACTTAACCGTGGGTATATTATATAAG; result = 6840 a.u.
Oligonucleotide = GATAGTAAACTCTGTCATGTTAATCGTTTGGATTTG; result = 3980 a.u.
Oligonucleotide = TACTGGAGTATTCGTCACGTGCCAGTGTGGCCCTGT; result = 17100 a.u.
Oligonucleotide = TTCTAAATCTGCAATAACGTGGCAAGTATTCTGATC; result = 9120 a.u.
Oligonucleotide = CATACCCAACCTTGGGCTGTGGGTGAAGATATTTGT; result = 3860 a.u.
Oligonucleotide = CTTCTGTAAATTTGCGCAGTGGGTGGACGCGCCCCG; result = 3670 a.u.
Oligonucleotide = AAAAAAATTAGGGGACGCGTGGGTAGGGCCGGCTTT; result = 10100 a.u.
Oligonucleotide = ATAGACAATACTTTTCACATGCCGCATTTAGCCGCC; result = 5940 a.u.
Oligonucleotide = TTCTGCGCAGAGAAAGGCGTGCAAAGTCCGTTTGAC; result = 6870 a.u.
Oligonucleotide = TATTTAACTCCATTTCACGTGATGGGTTTGAAAGAA; result = 13700 a.u.
Oligonucleotide = GGTTTAACAGATCTGGACGTGATGGTTTTTTTTTTT; result = 4260 a.u.

Sample 2
Target: RING finger protein unkempt homolog, zinc fingers 1-6, GST-SBP tag (UNK, Homo sapiens, UniProt Q9C0B0, residues 30-357)
UniProt Q9C0B0, sequence (30-357, looked up): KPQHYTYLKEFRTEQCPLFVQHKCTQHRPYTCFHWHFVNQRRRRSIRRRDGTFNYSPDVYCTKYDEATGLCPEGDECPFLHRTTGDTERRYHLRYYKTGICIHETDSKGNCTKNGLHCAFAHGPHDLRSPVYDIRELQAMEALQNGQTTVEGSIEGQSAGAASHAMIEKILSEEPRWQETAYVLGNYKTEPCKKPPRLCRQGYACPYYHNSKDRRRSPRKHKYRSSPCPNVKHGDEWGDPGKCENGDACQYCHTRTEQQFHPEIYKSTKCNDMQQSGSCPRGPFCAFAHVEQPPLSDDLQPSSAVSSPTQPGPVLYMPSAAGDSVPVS
Technique: RNA Bind-n-Seq
Molecule type: RNA
Medium: in vitro
Tested at: not given
Notes: RNA with constant flanks, human and mouse sites, ends assumed
Baseline: input RNA pool
Reading: higher = stronger binding
Measurement: bound/input enrichment
All sequences stand within: GGGAGUUCUACAGUCCGACGAUC … CAACAGAGGAUUGAGCAUCA
Oligonucleotide = UGUGGUGGAGAAGGUAUCUCAUUCCUCUCUAACAUCAUCUCCACUUUGCAUCUGUCUCUCUUAGUCUGCUUUUUUUCCACCGAUGUAACAGACCUGGAGCCAGCAGGACUCAGAGGAAAG; result = 0.302 ratio
Oligonucleotide = ACACAGUGAUUCUGCAGAGCCUGAGCUGCUGCUGUGGUGUGGCCCACUGGAGCAAACUGCUGGCACCUAUUCUGGGUUGCUUGUGAACUUCUACUCAUUUCCUAAAUUAAAACAUGCAGC; result = 0.164 ratio
Oligonucleotide = GUUAUUUUAAUAAUCCCUUUAAAUUUUAUCUGUUGCUGUUACCUCUUGAAAUAUGAUUUAUUUAGAUUGCUAAUCCCACUCAUUCAGGAAAUGCCAAGAGGUAUUCCUUGGGGAAAUGGU; result = 2.44 ratio
Oligonucleotide = CAGCAAAAAAUAAACAAAUUUGCUCGGAAUACGAGUCGAAUCACAGAGCUAAAGGAGGAAAUAGAAGUGAAGAAGAAACAUCUCCAGAACUUAGAGGACGCCUGUGAUGACAUCAUGCUG; result = 0.477 ratio
Oligonucleotide = CUUCCUCUGCCCCCCAUUGAGAUUCCAGCAGUUUUCUCGGGAAACACCUCUCCAAAAGUGGCAGUCGUUAAUCCUCAACCACAACAAUGGUCUAAAAUGUCAGUGAAGAAGGCCCCUCCA; result = 0.335 ratio
Oligonucleotide = UAUAAUGUAUCUUAUGUAUGUGCUUUAUAUUGUUAUUUGUGUAUACAUUAAAAUAAUUCUGAAUUAUUUAAUCUGAUAUGUUGUAUUCUGUAUCUUGAAAUUUUUGUUUCCUUGAAACAU; result = 0.205 ratio
Oligonucleotide = CUAGCUCCAGGUUAGGCCGAGCUUUGCGGGAAAGCAGCGGACUUGAAAAUACUGGAAAUCUGUCCGGAUCCAAAUUAUUUUGCAAGCCAGAUGAGUAACCAGAGGGCAUGAAAGGUUGAG; result = 0.602 ratio
Oligonucleotide = CCAAGAAGGGCCUCCAACAGGCAAAUUCAGGGAGAGGAUGGUUUCAGGGAAUAUCAGUUUAUUAGUGGGUCAUGAAUUAUAGACUUAACAGUAAUGGUUUGUGGUAGGAAGAUCACAACU; result = 0.949 ratio

Sample 3
Target: Histone acetyltransferase KAT6A, winged helix 2, GST fusion (KAT6A, Homo sapiens, UniProt Q92794, residues 85-181)
Technique: protein binding microarray
Molecule type: double-stranded DNA, one strand shown
Medium: in vitro
Tested at: not given
Notes: 8-mer, flanks averaged, mean of 2 arrays, mostly near background
Baseline: not given
Reading: higher = stronger binding
Measurement: E-score
Construct (chain): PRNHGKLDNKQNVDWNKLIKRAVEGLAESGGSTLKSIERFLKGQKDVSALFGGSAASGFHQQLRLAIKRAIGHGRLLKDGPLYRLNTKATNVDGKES
Oligonucleotide = CGGACGAG; result = 0.173
Oligonucleotide = ATGACTGG; result = -0.255
Oligonucleotide = GCCCTGGA; result = -0.011
Oligonucleotide = TCCAGGGA; result = -0.106
Oligonucleotide = GTACACTA; result = -0.151
Oligonucleotide = ACCACCCC; result = -0.118
Oligonucleotide = ATAGTGAC; result = -0.107
Oligonucleotide = CTTAAATC; result = -0.0169
Oligonucleotide = ATACTGCG; result = -0.143
Oligonucleotide = CACGTGGG; result = -0.159
Oligonucleotide = AGACTCGG; result = -0.204
Oligonucleotide = AGGGCGTC; result = 0.176
Oligonucleotide = GGATTTAC; result = 0.093
Oligonucleotide = GCCGTTGA; result = 0.0809
Oligonucleotide = CCGCGGGA; result = 0.0811
Oligonucleotide = CCGAGTCG; result = 0.109
Oligonucleotide = TGTTTAAA; result = -0.0182
Oligonucleotide = CACCTTAA; result = -0.177
Oligonucleotide = AATTGACC; result = 0.0638
Oligonucleotide = TAAGCTGA; result = -0.031
Oligonucleotide = ACAATACA; result = -0.0399
Oligonucleotide = CTGTCAAC; result = -0.0337
Oligonucleotide = ACACTATA; result = -0.106
Oligonucleotide = ACACTCGC; result = 0.0493
Oligonucleotide = TACCGAAA; result = -0.0916

Sample 4
Target: RNA binding protein fox-1 homolog 2, RRM domain, GST-SBP tag (RBFOX2, Homo sapiens, UniProt O43251-10, residues 100-194)
Technique: RNA Bind-n-Seq
Molecule type: RNA
Medium: in vitro
Tested at: 365 nM
Notes: natural RNA segment, single round, ends assumed
Baseline: no-protein control
Reading: higher = stronger binding
Measurement: RBNS enrichment (R)
All sequences stand within: GGGAGUUCUACAGUCCGACGAUC … UGGAAUUCUCGGGUGCCAA
Residues (chain): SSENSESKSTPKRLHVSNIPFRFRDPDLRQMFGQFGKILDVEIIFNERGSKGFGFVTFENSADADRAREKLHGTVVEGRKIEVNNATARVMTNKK
Oligonucleotide = UCAGAAAUAGCCUCAGAAACUGAGGGUUUCAUAGUUGGAAGGAAGAAAUGGUCAUAAACACAAAUCAAAAUAUAGUAUUAUAGAUCAUAGAACCAAGUCACGUAACCAGG; result = 0.364
Oligonucleotide = GGAGAGCAGGUUACUUGGCAACCAUAUUGUCACCUGUACCUGUCACACAUCUUGAAAAAUAAAACGAUAAUAGAACUAGUGACUAAUUUUCCCUUACAGUUCCUGCUUGG; result = 0.587
Oligonucleotide = CAGUGUUCUUCAUCAAUGUUAGUUAAUAUCCCAUUGCUUGUGUGGCGCCUUGAGUUGGUGGUAGACUAGGGCAAAUGCCCUCUUUAGUGAGAGACCAGAGGUUUUGUAUA; result = 3.67
Oligonucleotide = UUAGGCCCUCAAGACCCUUUUGGGUUUCUGCCCUGCCCACCCUCUGGAGAAGGUGGGCACUGGAUUAGUUAACAGACAACACGUUACUAGCAGUCACUUGAUCUCCGUGG; result = 0.251
Oligonucleotide = AUUCCUGGAGUCAGUGGAUACAAGUAGUGCAGAAGGUUCACACUGCAAAUAGUGUUCUCAUCUCAAAGCAAACUAUCAUUCCAGAAGGAAAAGUGUGUCAGGGCAAGCAG; result = 0.385
Oligonucleotide = AAUGAAUGGCACAGGUGAGGGCCUGUGCCACGCCCCACACACCUCAGGGCCAAGCGGGGGCGUGGCUGGCCCUUCAGGUCAGGCCAGUGGGCCUGGUAGCACAUGUCUGU; result = 0.318
Oligonucleotide = GAUCUAAAGCCUUUUUAUCCCAUAUCCCAAAUUCUUAUGAGCCACUCACAGCAGGCAGCAUAUGUUGAAAUAAGUUAUUACUGGUACACACCUGCAUUGCCUCACCAGUG; result = 1.1
Oligonucleotide = UUAUGCUAAAAUCCCAGAUGUUGUAGGACUGUACUUCUGUAGAGUUUAGACUGAGCAUCGAUCCCGUCUCCCCGCGAGUGCUGUCGGACUCCGUCCCCAAGGGCCAGGCC; result = 0.701

Excerpt of the above (sample 3):
Oligonucleotide = GCCGTTGA; result = 0.0809
Oligonucleotide = CCGCGGGA; result = 0.0811
Oligonucleotide = CCGAGTCG; result = 0.109
Oligonucleotide = TGTTTAAA; result = -0.0182
Oligonucleotide = CACCTTAA; result = -0.177
Oligonucleotide = AATTGACC; result = 0.0638
Oligonucleotide = TAAGCTGA; result = -0.031
Oligonucleotide = ACAATACA; result = -0.0399
Oligonucleotide = CTGTCAAC; result = -0.0337
Oligonucleotide = ACACTATA; result = -0.106
